Measured values of several laboratories.
Each numbered part is a random draw from the data of one study; scales do not carry over between parts. Substitutions count along the parent as printed.

Study 1 — target: CCNE2, cyclin fold, Cln2 fusion (human); method: yeast growth competition, sequencing; matrix: yeast; notes: weak parent motif; relative to: not given; direction: higher = stronger binding; endpoint: normalised enrichment score
Starting sequence: MASTL docking peptide (human); PMIAKNLMCELDE; partner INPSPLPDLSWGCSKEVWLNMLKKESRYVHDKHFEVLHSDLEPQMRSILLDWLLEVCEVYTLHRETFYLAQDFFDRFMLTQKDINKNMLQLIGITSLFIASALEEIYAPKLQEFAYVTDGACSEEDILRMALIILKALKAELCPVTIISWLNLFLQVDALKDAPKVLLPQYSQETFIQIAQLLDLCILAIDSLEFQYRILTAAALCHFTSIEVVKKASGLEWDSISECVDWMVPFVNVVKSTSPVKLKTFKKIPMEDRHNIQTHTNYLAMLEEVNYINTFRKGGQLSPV
C9A: 0.0479
K5H: -0.54
M8R: -0.104
E10G: -0.0117
E10K: 0.317
C9H: -0.598
M2I: -0.0383
N6Q: -0.182

Study 2 — method: RNA Bind-n-Seq; molecule type: RNA; matrix: in vitro; concentration: 200 nM; notes: whole 134-nt RNA, ends assumed; added: 150 mM LiCl; relative to: input library; direction: higher = stronger binding; endpoint: log2 enrichment; each molecule: 7-deaza-guanosine replaces G
Target: Ras GTPase-activating protein-binding protein 1, full length (G3BP1, Homo sapiens, UniProt Q13283)
Chain of UniProt Q13283 (whole entry, looked up): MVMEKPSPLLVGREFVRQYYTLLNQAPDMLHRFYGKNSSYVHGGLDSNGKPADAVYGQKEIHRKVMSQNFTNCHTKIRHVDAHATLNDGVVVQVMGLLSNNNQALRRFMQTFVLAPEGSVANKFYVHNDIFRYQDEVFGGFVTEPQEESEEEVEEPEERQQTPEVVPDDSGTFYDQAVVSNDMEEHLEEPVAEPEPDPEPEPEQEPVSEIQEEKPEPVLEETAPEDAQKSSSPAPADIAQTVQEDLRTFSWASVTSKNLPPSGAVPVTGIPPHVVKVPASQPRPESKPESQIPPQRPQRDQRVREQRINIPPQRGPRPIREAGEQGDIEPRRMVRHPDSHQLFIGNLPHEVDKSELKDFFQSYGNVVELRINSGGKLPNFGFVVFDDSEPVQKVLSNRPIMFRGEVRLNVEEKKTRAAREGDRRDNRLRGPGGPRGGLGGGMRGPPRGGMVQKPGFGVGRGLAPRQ
All sequences stand within: GGGAGUUCUACAGUCCGACGAUC … UGGAAUUCUCGGGUGUCAAGG
CUGUGCUACACAUCGUAUGUACCGAAUCGGGAAAAAAAGGGAAAAAAAGGAAAAAAAGGGGAAAGUAUUAUGUUACGCCGUUCGGAUCUG: -0.0533
UCCUGUGCUACACAUCGUAUGUACCGAAUCGGGCCCCCCGGGCCCCCCGGGCCCCCCGGAAAGUAUUAUGUUACGCCGUUCGGAUCUGCA: -0.655
CCUGUGCUACACAUCGUAUGUACCGAAUCAAACCCCCCCAAAUUUUUAAAUUUUUUUAAAAAAGUAUUAUGUUACGCCGUUCGGAUCUGC: 1.56
UCAAGUCCUGUGCUACACAUCGUAUGUACCGAAUCGGGGUUGGGGUUGGUUGGGGAAAGUAUUAUGUUACGCCGUUCGGAUCUGCACUUC: 0.0893
AAGUCCUGUGCUACACAUCGUAUGUACCGAAUCGUGUGUGUGUGUGUGUGUGUGUGAAAGUAUUAUGUUACGCCGUUCGGAUCUGCACUU: -0.639
CAAGUCCUGUGCUACACAUCGUAUGUACCGAAUCGGGGUGGGGUUUGGGGUGGGGAAAGUAUUAUGUUACGCCGUUCGGAUCUGCACUUC: -0.666
GUCCUGUGCUACACAUCGUAUGUACCGAAUCGGUUUUUGGGGUUUUUGGGUUUUUGGGGAAAGUAUUAUGUUACGCCGUUCGGAUCUGCA: -0.529
CUGUGCUACACAUCGUAUGUACCGAAUCGGCCCCCCCGGGGCCCCCCCGGGGCCCCCCCGGGAAAGUAUUAUGUUACGCCGUUCGGAUCU: -0.919

Study 3 — method: universal PBM; molecule type: double-stranded DNA, one strand shown; matrix: in vitro; concentration: 600 nM; direction: higher = stronger binding; endpoint: E-score
Target: Sal-like protein 4, full length isoform A (SALL4, Homo sapiens, UniProt Q9UJQ4, residues 1-1053)
Chain of UniProt Q9UJQ4 (whole entry, looked up): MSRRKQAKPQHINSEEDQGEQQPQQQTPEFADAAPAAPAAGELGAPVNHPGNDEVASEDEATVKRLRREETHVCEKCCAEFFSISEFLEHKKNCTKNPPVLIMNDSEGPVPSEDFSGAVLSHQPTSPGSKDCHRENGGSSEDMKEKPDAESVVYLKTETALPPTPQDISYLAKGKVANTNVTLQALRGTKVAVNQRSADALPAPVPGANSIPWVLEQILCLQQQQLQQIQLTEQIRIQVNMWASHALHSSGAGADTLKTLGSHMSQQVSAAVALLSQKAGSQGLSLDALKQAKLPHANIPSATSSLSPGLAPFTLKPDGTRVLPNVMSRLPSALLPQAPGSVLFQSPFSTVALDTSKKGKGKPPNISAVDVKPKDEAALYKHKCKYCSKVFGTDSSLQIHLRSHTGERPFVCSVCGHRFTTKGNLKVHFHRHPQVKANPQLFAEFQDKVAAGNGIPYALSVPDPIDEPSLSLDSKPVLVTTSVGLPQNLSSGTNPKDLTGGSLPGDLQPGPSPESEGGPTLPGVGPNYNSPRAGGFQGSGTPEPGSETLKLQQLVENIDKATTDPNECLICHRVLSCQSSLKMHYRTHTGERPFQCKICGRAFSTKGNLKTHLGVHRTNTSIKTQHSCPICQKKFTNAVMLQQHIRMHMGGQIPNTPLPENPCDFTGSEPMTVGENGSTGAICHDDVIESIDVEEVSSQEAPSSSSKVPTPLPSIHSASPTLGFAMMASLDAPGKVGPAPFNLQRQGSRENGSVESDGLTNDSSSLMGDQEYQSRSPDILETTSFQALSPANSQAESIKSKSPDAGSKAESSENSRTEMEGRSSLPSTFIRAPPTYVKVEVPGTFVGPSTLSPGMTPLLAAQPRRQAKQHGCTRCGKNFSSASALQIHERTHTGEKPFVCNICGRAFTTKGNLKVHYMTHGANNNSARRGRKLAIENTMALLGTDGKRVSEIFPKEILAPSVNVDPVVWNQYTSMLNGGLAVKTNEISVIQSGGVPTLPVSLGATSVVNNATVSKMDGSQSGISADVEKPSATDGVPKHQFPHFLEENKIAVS
Notes: 8-mer, flanks averaged, mean of replicates
CAGTGAGA: -0.0442
AGATTTGA: 0.186
AGGCGTAG: -0.147
AACACGAT: 0.122
AGAATAAG: 0.258
TCACTCGA: -0.00054
AGGATACT: -0.0255
ATAGCAGC: -0.0778

Mixed results
Starting sequence: PafA, mature enzyme, eGFP fusion (Elizabethkingia meningoseptica, UniProt Q9KJX5); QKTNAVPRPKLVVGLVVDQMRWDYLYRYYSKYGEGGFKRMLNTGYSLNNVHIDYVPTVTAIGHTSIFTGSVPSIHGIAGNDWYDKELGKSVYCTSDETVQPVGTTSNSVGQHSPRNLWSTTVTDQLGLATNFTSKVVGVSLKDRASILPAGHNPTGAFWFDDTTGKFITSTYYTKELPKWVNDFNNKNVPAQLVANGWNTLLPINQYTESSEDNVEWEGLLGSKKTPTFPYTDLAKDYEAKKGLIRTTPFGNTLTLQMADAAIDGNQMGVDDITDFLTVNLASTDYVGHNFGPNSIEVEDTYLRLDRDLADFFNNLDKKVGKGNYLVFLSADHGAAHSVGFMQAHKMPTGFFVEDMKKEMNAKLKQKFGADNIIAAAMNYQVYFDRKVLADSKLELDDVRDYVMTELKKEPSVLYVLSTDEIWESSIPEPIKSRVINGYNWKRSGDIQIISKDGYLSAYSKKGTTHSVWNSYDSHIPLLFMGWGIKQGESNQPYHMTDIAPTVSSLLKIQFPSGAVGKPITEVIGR
A331G  oxyanion analog dissociation constant (vanadate, free oxyanion; microfluidic competitive inhibition; in vitro, cell-free expressed; not given, derived from inhibition constants, unchanged parent 676 nM; lower = stronger binding): 1.22 µM

A few entries again (study 1):
M8R: -0.104
E10G: -0.0117
